Published values gathered from unrelated publications.
Protocols differ between the studies behind these lines. ± marks the error that the study gave.
DCLRE1A: DNA cross-link repair 1A protein (DCLRE1A, Homo sapiens, UniProt Q6PJP8)
NTRK1: High affinity nerve growth factor receptor (NTRK1, Homo sapiens, UniProt P04629)

SMILES | tested on | test | system | conditions | scale | measurement | value
O=C(COCC(F)F)Nc1ccc(C2CCCCC2)cc1 |  | hepatocyte stability | cryopreserved mouse hepatocytes | 1 µM |  | hepatic clearance | 84 mL/min/kg
CCCCC/C=C/C=C/C(=O)NCC(C)C | DCLRE1A | exonuclease activity, inhibitor, fluorescence HTS |  | 10 µM, 80 min, added: 8 nM 5P-FQ substrate | baseline: high and low controls | remaining activity | 42.8%
C=CC(=O)N1CCC[C@@H](n2nc(-c3ccc(Oc4ccccc4)cc3)c3c(N)ncnc32)C1 | Ephrin type-B receptor 1 (EPHB1, Homo sapiens, UniProt P54762) |  |  | 0.1 µM |  | remaining activity | 134%
O=C(O[C@@H]1Cc2c(O)cc(O)cc2O[C@@H]1c1cc(O)c(=O)c2c(O)c(O)cc([C@H]3Oc4cc(O)cc(O)c4C[C@H]3OC(=O)c3cc(O)c(O)c(O)c3)c2c1)c1cc(O)c(O)c(O)c1 | DCLRE1A |  |  | 10 µM |  | remaining activity | 27.2%
COc1cc(Nc2ncc3c(n2)-c2ccc(Cl)cc2C(c2c(F)cccc2OC)=NC3)ccc1C(=O)O | CLK3 | kinase activity |  | 1 µM |  | remaining activity | 94%
Cn1cc(-c2ccc(-c3cncc(Cl)c3N3CCC4(CCNC4=O)CC3)cc2)cn1 | COLO 205 | gene expression, microarray, item: RPL37 mRNA |  | concentration not given, 2 h | baseline: untreated cells | log2 fold change | 2.11
Cc1cccc2c3c(ccc12)C1=C(C(=O)C3=O)[C@@H](C)CO1 | DCLRE1A | exonuclease activity, inhibitor, fluorescence HTS |  | 10 µM, 80 min, added: 8 nM 5P-FQ substrate | baseline: high and low controls | remaining activity | 27%
COc1ccc(F)cc1C(=O)NCc1ccc(-c2nn([C@@H](C)C(F)(F)F)c(N)c2C(N)=O)cc1 | Calcium/calmodulin-dependent protein kinase type 1 (CAMK1, Homo sapiens, UniProt Q14012) | kinase activity, inhibitor, HotSpot radiometric |  | 100 nM, added: ATP 10 µM |  | remaining activity | 92.9 ± 0.9%
COc1cc(F)ccc1-c1ncnc(Nc2cccc(C[S@](C)(=N)=O)c2)n1 | NTRK1 | kinase activity |  | 10 µM, added: 10 µM ATP |  | remaining activity | 20%
NC/C(=C\F)COc1cccc(Cn2c(=S)[nH]c(=O)c3[nH]cnc32)c1 | Peroxidasin homolog (PXDN, Homo sapiens, UniProt Q92626) | Amplex UltraRed |  | 40 µM | baseline: control | remaining activity | 13.7%
[H]/N=C(\N/C(=N/[H])NCCCCCCNC(=N)NC(=N)Nc1ccc(Cl)cc1)Nc1ccc(Cl)cc1 | DCLRE1A | exonuclease activity, inhibitor, fluorescence HTS |  | 10 µM, 80 min, added: 8 nM 5P-FQ substrate |  | remaining activity | 53.1%
COc1cc(-c2cncc3c2CN(C)Cc2cc(N4CCNCC4)ccc2-3)cc(OC)c1OC | Myosin light chain kinase, smooth muscle (MYLK, Homo sapiens, UniProt Q15746) | kinase activity |  | 1 µM, human enzyme, added: ATP 10 µM | baseline: DMSO control | remaining activity | 102%
NC(=O)CCNC(=O)c1ccc([C@H]2[C@@H](F)[C@@H](F)C[C@@H](F)[C@H]2F)cc1 |  | liver microsome stability | dog liver microsomes | 1 µM |  | hepatic clearance | 7.3 mL/min/kg
O=C1c2c(O)ccc(O)c2C(=O)c2c(NCCNCCO)ccc(NCCNCCO)c21 | DCLRE1A | exonuclease activity, inhibitor, fluorescence HTS |  | 10 µM, 80 min, added: 8 nM 5P-FQ substrate |  | remaining activity | 42.7%
Cc1cc(Nc2cc(N3CCN(C)CC3)nc(Sc3ccc(NC(=O)C4CC4)cc3)n2)[nH]n1 | Casein kinase II subunit alpha' (CSNK2A2, Homo sapiens, UniProt P19784) | kinase activity, KinaseProfiler |  | 0.03 µM, species human | baseline: control | remaining activity | 101%
CC#CC(=O)N1CCC[C@H]1c1nc(-c2ccc(C(=O)Nc3ccccn3)cc2)c2c(N)nccn12 | Dual specificity mitogen-activated protein kinase kinase 6 (MAP2K6, Homo sapiens, UniProt P52564) | kinase activity, inhibitor, HotSpot radiometric |  | 100 nM, added: ATP 10 µM |  | remaining activity | 91.7 ± 4.1%
O=C1NC(=O)/C(=C/c2ccc(-c3ccc(F)cc3O)o2)S1 | NTRK1 | enzyme activity |  | 10 µM |  | remaining activity | 79%
O=C(O)c1ccc(Nc2ncc3c(n2)-c2ccc(Cl)cc2C(c2c(F)cccc2F)=NC3)cc1 | MSSK1(h) | kinase activity |  | 1 µM |  | remaining activity | 100%

Repeated from above:
SMILES | tested on | test | system | conditions | scale | measurement | value
O=C(COCC(F)F)Nc1ccc(C2CCCCC2)cc1 |  | hepatocyte stability | cryopreserved mouse hepatocytes | 1 µM |  | hepatic clearance | 84 mL/min/kg
